Measured values gathered from unrelated publications.
Each numbered part is a random draw from the data of one study; scales do not carry over between parts. Changes are numbered by the printed parent chain.

Set 1
Target: CCND3, cyclin fold, Cln2 fusion (human)
Technique: yeast growth competition, sequencing
Medium: yeast
Setting: weak parent motif
Reference: not given
Reading: higher = stronger binding
Endpoint: normalised enrichment score
Starting sequence: WEE1 docking peptide (human); CTLRQKLIFSPCS
CTLRQKLIASPCS [F9A]: 0.0633
CTLAQKLIFSPCS [R4A]: 0.0152
CTLRQKLIFSPCA [S13A]: 0.016
CTLRQKLIFSACS [P11A]: -0.248
CTARQKLIFSPCS [L3A]: -0.313
CTLRQKLIFAPCS [S10A]: 0.278

Set 2
Target: Hepatocyte nuclear factor 3-alpha (Foxa1, Mus musculus, UniProt P35582, residues 1-468, full length assumed)
Technique: EMSA with sequencing
Molecule type: double-stranded DNA, one strand shown
Medium: in vitro
Tested at: 10 and 20 nM
Setting: whole designed probe, mean of two concentrations, ends assumed
Reference: negative control set to 0
Reading: higher = stronger binding
Endpoint: normalised bound fraction
All sequences stand within: GTGAGCGGTGCCCATTGATGGGGAAC … TTTCACTGGGATCGTGGGGAC
Target sequence (chain): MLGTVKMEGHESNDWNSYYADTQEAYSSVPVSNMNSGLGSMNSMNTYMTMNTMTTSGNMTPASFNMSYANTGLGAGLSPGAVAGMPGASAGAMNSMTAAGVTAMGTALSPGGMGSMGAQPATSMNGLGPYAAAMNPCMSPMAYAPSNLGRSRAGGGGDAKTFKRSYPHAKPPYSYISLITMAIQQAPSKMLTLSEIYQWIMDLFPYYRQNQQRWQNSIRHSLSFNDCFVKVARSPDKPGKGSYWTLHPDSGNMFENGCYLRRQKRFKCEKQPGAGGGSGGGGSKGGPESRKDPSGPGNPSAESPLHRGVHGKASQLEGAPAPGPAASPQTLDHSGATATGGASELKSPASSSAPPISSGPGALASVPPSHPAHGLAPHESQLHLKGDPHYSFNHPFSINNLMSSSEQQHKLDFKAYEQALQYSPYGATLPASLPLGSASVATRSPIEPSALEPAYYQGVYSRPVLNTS
ATCTTCCCCCTCTTCCTTGCCCCACCAGCTCACCTACGGGGGTTATTTGCACAAAGGAAAATAAATAAAGCCGGCATTCGTTAACGCAGTTCTGGCGCAAACTGCTGTTTGCTCTGGATCTAACATGGTCCTTTGGCGAGGCGTGGCTCCGGGAGAGCAAAGCACCGTGTCAGGGCCATGATCCGGGCTCGCC: 0.384 ratio
ATCTTCCCCCTCTTCCTTGCCCCACCAGCTCACCTTCCCGGGTTATTTGCAGATAGGAAAATAAATAAAGCCGGCATTCGTTAACCCCCGGGTTTCTCAAACTGCTGTTTGCTCTGGATGAATCATGGTCCTTTGGCGACGCCAGGCTCCGGGAGAGCAAAGCACCGTGTCAGGGCCATGATCCGGGGTGGCC: 0.359 ratio
GTAAGGACCTCAATTTATTTTTTTCCCTAAGAGCTAATGAATTTTCCCAGTATCACCCACTGAGCCGTCCTCCCCTCTTTGTGATGCCACGTTTGTTTACCTTGTGCTGACTCATATGTTCTGCAACATTCAGCTATTTGTCAATTCTTATGCCAGTACTTCCACTGTTACCATCATCAATTTAAAGATTACT: 0.425 ratio
ATCTTCCCCCTCTTCCTTGCCCCACCAGCTCACCTTCCCGGGTTGTTTACTTTGAGCAAAGTAAACAAAGCCGGCATTCGTTAACCCTCTTCACGCGCATACTGCACATTGGTCTGGATGAATCATGGTCCTTTGGCGACGCCAGGCTCCGGGAGAGCAAAGCACCGTGTCAGGGCCATGATCCGGGGTGGCC: 0.532 ratio
ATCTTCCCCCTCTTCCTTGCCCCACCAGCTCACCTTCCCGGGTTATTTGCAGATAGGAAAATAAATAAAGCCGGCATTCGTTAACCCTCTTCTGGCGCAAACTGCTGTTTGCTCTGGTCCTTTGGCGACGCCAGGCTCCGGATGAATCATGGGAGAGCAAAGCACCGTGTCAGGGCCATGATCCGGGGTGGCC: 0.403 ratio
CTCTCTTCTCCCACCATCAACTCTAAACAAATCTCAGTGTCAGTTGAAGGATTTCATGTCCTGAATCTGCAAACCAGGATCATCTGGCAGCACTGTTTACCTAAAGTGATTAAAACCCATGAATCATGATGTTTATACAAGTTTTTCTTCCTTGTAAAAAGGCAAGAGGCAACGCTATAGACCACAGACGGAA: 0.319 ratio
GTCTAGCTCCAGTCTTAGCATGGCAATTTCTTCCCGCAACGTACTATTTTCATGCAAGAAGTCTTTTTCTTTCTTACAACTAAGAGAAAGCTAAGTAAACAAAGAGAACTTTTAGTTAGCACTCAATAGATTGACATATCATTATTTCTTCTGAAATTCAAAAATAACATGTATTTGTATAATGAAAGAATCC: 0.497 ratio
CTGTTTATACTCCGAAGTTCTTTTCCCTTGATCTGTATAAGACACAATAGATGATAACAGCTGATTGAGAATAGTTAGTCTAGTGTATAAATATGTAAACATGGGTAAGTATGTATTTAGACAATTTAAAAGTGTGTCTCATTTACCCAATTATAAACAGCTGTCTGAGAGCAATTACGATTTATCATGTAAA: 0.305 ratio

Set 3
Target: FOSB, bZIP domain (human)
Technique: DHFR protein complementation
Medium: yeast
Setting: single substitutions, most at no-binding floor
Reference: wild-type JUN-FOS pair
Reading: higher = stronger binding
Endpoint: binding fitness
Starting sequence: JUN, bZIP domain (human); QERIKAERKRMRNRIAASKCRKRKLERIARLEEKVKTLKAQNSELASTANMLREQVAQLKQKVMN; partner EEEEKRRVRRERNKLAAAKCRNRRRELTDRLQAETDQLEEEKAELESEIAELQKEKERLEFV
E54N: -0.13 natural log
S43M: -0.0556 natural log
A29Q: -0.333 natural log
A49Y: -0.415 natural log
R53W: -0.997 natural log
R53M: -0.709 natural log
A49H: -0.704 natural log
E44S: -0.15 natural log
Q41M: -0.166 natural log
I28M: -0.165 natural log

Set 4
Target: Protein C-ets-1 (ETS1, Homo sapiens, UniProt P14921, residues 1-441, K379A, full length assumed)
Technique: protein-binding microarray
Molecule type: double-stranded DNA, one strand shown
Medium: in vitro
Tested at: not given
Setting: k-mer, scored over probes, only values ≥0.25
Reading: higher = stronger binding
Endpoint: E-score
Target sequence (chain): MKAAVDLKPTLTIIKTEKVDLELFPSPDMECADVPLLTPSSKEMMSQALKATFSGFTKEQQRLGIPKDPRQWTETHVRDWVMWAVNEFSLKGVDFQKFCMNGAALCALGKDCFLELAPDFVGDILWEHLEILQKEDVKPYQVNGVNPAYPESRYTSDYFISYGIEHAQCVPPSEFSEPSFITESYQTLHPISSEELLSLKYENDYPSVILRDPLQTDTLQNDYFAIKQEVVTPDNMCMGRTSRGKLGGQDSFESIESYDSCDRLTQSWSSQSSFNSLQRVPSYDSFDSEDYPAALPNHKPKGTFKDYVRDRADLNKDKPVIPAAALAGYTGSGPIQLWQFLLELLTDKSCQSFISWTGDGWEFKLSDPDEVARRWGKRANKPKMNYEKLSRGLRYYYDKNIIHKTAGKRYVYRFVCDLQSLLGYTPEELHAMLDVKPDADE
ACACATAT: 0.356
ATACGGTC: 0.263
ACAGGAAA: 0.333
CACCACTC: 0.255
GACGGTAC: 0.254
AATGGTAG: 0.281
ACACAATG: 0.311
CCGGTCCG: 0.356
GGTAACTA: 0.275
GACAGGTA: 0.275
GAACGGAA: 0.278
ACATCATA: 0.287
CCCGACAA: 0.27
CGGTAAGA: 0.293
CCCCGGCG: 0.32
CGATACAC: 0.254
AATTAACC: 0.309
CGGTCGTA: 0.297
CATTCCCG: 0.273
ATACAAAC: 0.281
ACATTACC: 0.257
CCCACCGG: 0.308
CGCTTTAC: 0.29
CAACCGGA: 0.371
GCGGTAAC: 0.281

Set 5
Target: RNA binding protein fox-1 homolog 2, RRM domain, GST-SBP tag (RBFOX2, Homo sapiens, UniProt O43251-10, residues 100-194)
Technique: RNA Bind-n-Seq
Molecule type: RNA
Medium: in vitro
Tested at: 365 nM
Setting: natural RNA segment, single round, ends assumed
Reference: no-protein control
Reading: higher = stronger binding
Endpoint: RBNS enrichment (R)
All sequences stand within: GGGAGUUCUACAGUCCGACGAUC … UGGAAUUCUCGGGUGCCAA
Construct (chain): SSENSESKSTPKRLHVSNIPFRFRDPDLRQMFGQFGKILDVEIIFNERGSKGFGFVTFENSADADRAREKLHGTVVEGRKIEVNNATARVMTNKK
UCCCUGCGGCCUCCACACCUGAACUUGCCUAACUAACUGGCAGGGGAGACAGGAGCCUAGCGGAGCCCAGCCUGGGAGCCCAGAGGGUGGCAAGAACAGUGGGCGUUGGG: 0.431
UCAGGAAGCAAGAGUGUUCAUCACUGUUGUAAUUUCAAAUGCUCCUUGUGAUUUCUGGCAUCUCUGUGGGGUGAGGUGUUCUGUUACUCUUCACAUUCAAAGACUGUCAC: 0.326
UGAAGGAGAAAAAGCUUAAAUUCCAUCUUGAGCUCUUGGAUUGUGAUAAUACAAUGAUUUCAUUAACUUUUCAUUUCUGUAUACCUGUUCAUUUGGAAUUUAAUGCUUGA: 0.419
GUCAGUAUGCCCCAAAGCUUGCUCUUUUGUGCUCCCUUUUGAAUAACUUUCUAUCCAGAAAAAGAGAUUAUUUGGGACUUGAGAUUUGCAGUGAUACCAACUUAUAGCAA: 0.558
AGGUGCAGCACCUCCCGGAGACUGUUUCUCCCAUGGCCUCCUGAGUGAUGGGCCCUGCCUCCCUGUGCCUCAUCCUCAGGCUGGUUGGAGCAGAGGGUGGGCAGGAGCCC: 0.16
UACAUUUGGGGAAAGCCUUGGGUGUAAAUCAGUGUAAACUUGGAGGAGAGAUUUUUCUAUCAUGUAGAGUAGGUAUUUUUUAUAGAUUGAAGGUUGAUCAAUUUUUUAAU: 0.762
UACCUUAAGUUUUUUUUGUUUUGUUUUUGUUUUUUUGUUUUUUGUUUUCCUUUAUGAAGAAAAAAUAAAAUAGUCACAUUUUAAUACUACUCUAGUUAGGACAGACUUGU: 0.829
CCAGCCAGGGGCGCCAGAGGGCCCUAACAAGAACAGACACCCCUGUCCUUUUGGAUCUGGUCCUGCUCCUACCUGCUCCUUCUCUGCAGAUUGUUAGAAAGUGAACUUUG: 0.379
AGCUACAGAGUGUGAUCCUGUCAAAAUCCCCUGAGAAAUAUUCUUAGGGGCUCACAACCAAGGUCCGGAGGCAACACAUAGUGGGAGCUCUUCCCCAGCACAGGGCAGAC: 0.423
CAUCCUGAAGAUUAUUAAAAGGAAAAGAUGCUGAUUGGUACAUAAAUCUUUUACAUGGCCUUGGUCUAGAGGAGGCAGGCUUUUAGAAUCAUGUUUUGUUAAUCCGCUUC: 1.19
AUAUUAACCACAAUCAUCUCUAGAGGAAAGAGUAUUACAACCCAGGCAUGAUCCUCUAUGGACACUAACUUACCCCAUGUCCACCUUUGCCCAAAAACACUGAAACUGUG: 3.12
UUACUGCAUUUCUGCUCUUGGUUCUAGCUGUGUGAACUCUAACUUCUUUCCUGAUGGGGAUCUCUGUGUUCUUGAGCUCUGAUUAUGUAAUGAAGGCUGACACAGUCCCC: 0.429

Set 6
Target: ABI1, truncated, D143A, DHFR fusion (Arabidopsis thaliana)
Technique: DHFR PCA, deep sequencing
Medium: yeast
Setting: methotrexate growth selection, single substitutions
Added: (+)-ABA 0.0091 µM
Reference: wild-type fitted maximum
Reading: higher = stronger binding
Endpoint: relative binding score
Starting sequence: PYL1, truncated, DHFR fusion (Arabidopsis thaliana); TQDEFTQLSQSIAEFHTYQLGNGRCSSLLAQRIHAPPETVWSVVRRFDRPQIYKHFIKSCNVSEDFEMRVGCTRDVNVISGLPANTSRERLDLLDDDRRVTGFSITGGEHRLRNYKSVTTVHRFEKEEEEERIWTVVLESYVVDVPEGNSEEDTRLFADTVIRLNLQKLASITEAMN
R88G: -1.71%
A175K: 23.3%
E128Q: 25.4%
R99K: 46.6%
R88K: 33.8%
D153L: -2.35%
L169Q: -1.96%
N85W: 42.2%
E4N: 2.76%
K168A: 1.3%

Single results of other studies
PhoQ, residues 284 288 289 292 302 303 SNSSNI
fold induction (PhoP, residues 12 14 15 18 19 HEGLL (Escherichia coli, UniProt P23836); Sort-seq, refers to: YFP reporter; E. coli; PhoQ-PhoP variant library, added: 10 µM Mg2+; reference: high Mg2+ state, higher = stronger signaling): 1.01

For quick reference, copied from above (set 4):
ATACGGTC: 0.263
ACACATAT: 0.356
CATTCCCG: 0.273
CGGTCGTA: 0.297
CACCACTC: 0.255
CCCACCGG: 0.308
AATTAACC: 0.309
CCGGTCCG: 0.356
CGGTAAGA: 0.293
